Measured values gathered from unrelated publications.
Numbered parts are unrelated; each lists some results of a single study.
Sequence of UniProt Q92985 (whole entry, unmodified, looked up): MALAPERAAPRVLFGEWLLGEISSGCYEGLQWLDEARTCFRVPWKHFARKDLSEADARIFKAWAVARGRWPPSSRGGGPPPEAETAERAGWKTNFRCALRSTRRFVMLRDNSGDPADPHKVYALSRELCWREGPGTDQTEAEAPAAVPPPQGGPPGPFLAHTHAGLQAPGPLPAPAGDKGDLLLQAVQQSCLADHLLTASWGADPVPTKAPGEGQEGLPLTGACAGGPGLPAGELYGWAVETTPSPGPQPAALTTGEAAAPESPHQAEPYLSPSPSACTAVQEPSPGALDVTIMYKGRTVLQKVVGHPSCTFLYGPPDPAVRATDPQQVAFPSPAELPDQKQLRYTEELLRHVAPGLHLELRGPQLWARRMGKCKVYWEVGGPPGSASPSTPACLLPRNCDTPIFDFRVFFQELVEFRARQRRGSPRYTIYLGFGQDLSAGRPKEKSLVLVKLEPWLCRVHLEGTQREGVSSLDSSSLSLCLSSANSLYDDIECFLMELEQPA

Series 1
Target: Histone acetyltransferase KAT6A, winged helix 2, GST fusion (KAT6A, Homo sapiens, UniProt Q92794, residues 85-181)
Technique: protein binding microarray
Molecule type: double-stranded DNA, one strand shown
Sample: in vitro
Tested at: not given
Notes: 8-mer, flanks averaged, mean of 2 arrays, mostly near background
Reference: not given
Direction: higher = stronger binding
Target sequence (chain): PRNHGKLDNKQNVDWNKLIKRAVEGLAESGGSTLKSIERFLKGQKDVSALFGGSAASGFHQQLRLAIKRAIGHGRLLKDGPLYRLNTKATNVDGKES
Strand | E-score
CATACCCC | -0.00309
CAGGGTCG | 0.0904
AACCACCG | -0.136
AAAGGTTA | -0.0682
ATTCAATC | -0.0341

Further values, each from its own experiment
IRF3 S386D/S396D/S398D/S402D/T404D/S405D full length, phosphomimetic: Interferon regulatory factor 3, full length, phosphomimetic (IRF3, Homo sapiens, UniProt Q14653, residues 1-427, S386D/S396D/S398D/S402D/T404D/S405D)
Sequence of UniProt Q14653 (whole entry, unmodified, looked up): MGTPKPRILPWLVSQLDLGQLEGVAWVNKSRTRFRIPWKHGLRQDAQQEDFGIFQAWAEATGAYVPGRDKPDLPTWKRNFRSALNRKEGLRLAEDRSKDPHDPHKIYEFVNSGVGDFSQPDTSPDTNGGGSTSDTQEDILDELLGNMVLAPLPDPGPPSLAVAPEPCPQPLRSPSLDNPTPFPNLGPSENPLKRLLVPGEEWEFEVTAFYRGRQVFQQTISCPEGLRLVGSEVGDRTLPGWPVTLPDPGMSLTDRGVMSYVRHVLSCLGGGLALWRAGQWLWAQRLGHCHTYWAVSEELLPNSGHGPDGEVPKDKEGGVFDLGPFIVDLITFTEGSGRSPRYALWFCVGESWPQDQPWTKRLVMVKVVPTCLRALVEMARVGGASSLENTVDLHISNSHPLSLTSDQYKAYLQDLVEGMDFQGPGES
ATF1: Cyclic AMP-dependent transcription factor ATF-1 (ATF1, Homo sapiens, UniProt P18846, residues 1-271, full length assumed)
Sequence of UniProt P18846 (whole entry, looked up): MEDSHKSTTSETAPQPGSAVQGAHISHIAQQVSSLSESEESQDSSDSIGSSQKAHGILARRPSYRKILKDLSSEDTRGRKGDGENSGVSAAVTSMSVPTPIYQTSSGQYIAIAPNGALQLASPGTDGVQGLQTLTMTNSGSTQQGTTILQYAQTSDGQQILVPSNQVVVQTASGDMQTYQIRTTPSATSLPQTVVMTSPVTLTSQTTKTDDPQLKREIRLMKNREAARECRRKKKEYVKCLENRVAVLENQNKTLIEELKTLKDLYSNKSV
Substance | target | assay | system | setting | how to read | quantity | result
GCCTAGCACTTTCTTACATGCATCATAACGTGCTAGGTCTTGATTCGCTTGACGCTGCTG | IRF3 S386D/S396D/S398D/S402D/T404D/S405D full length, phosphomimetic | protein-binding microarray | double-stranded DNA, one strand shown, in vitro | 2540 nM top, 60-bp whole probe, together with: salmon DNA 0.4 mg/ml | reference: random background probes, higher = stronger binding | fitted relative affinity | 2.17 z-score
CACGTAC | ATF1 | protein-binding microarray | double-stranded DNA, one strand shown, in vitro | not given, k-mer, scored over probes, only values ≥0.25 | higher = stronger binding | E-score | 0.282
GCCTAGCACTTAGATCTCAGTATCGCTTAGTGCTAGGTCTTGATTCGCTTGACGCTGCTG | Interferon regulatory factor 7, full length, phosphomimetic (IRF7, Homo sapiens, UniProt Q92985, residues 1-503, S101K/S471D/S472D/S475D/S476D/S477D/S483D/S484D/S487D) | protein-binding microarray | double-stranded DNA, one strand shown, in vitro | 250 nM, 60-bp whole probe, together with: salmon DNA 0.4 mg/ml | reference: random background probes, higher = stronger binding | log fluorescence | 0.318 z-score
AAACGTA | ATF1 | protein-binding microarray | double-stranded DNA, one strand shown, in vitro | not given, k-mer, scored over probes, only values ≥0.25 | higher = stronger binding | E-score | 0.302
GCCTAGCACTCAGGTATTTTTTTCTAACTGTGCTAGGTCTTGATTCGCTTGACGCTGCTG | Interferon regulatory factor 5, full length, phosphomimetic (IRF5, Homo sapiens, UniProt Q13568-2, residues 1-514, S451D/S453D/S456D/S462D) | protein-binding microarray | double-stranded DNA, one strand shown, in vitro | 940 nM top, 60-bp whole probe, together with: salmon DNA 0.4 mg/ml | reference: random background probes, higher = stronger binding | fitted relative affinity | 0.57 z-score
PhoQ, residues 284 288 289 292 302 303 AANNSF | PhoP, residues 12 14 15 18 19 TTLRV (Escherichia coli, UniProt P23836) | Sort-seq, item: YFP reporter | E. coli | PhoQ-PhoP variant library, together with: 10 µM Mg2+ | reference: high Mg2+ state, higher = stronger signaling | fold induction | 7.94
GCCTAGCACTTAGATTTCGGGTTCCGATTAGTGCTAGTCTTGATTCGCTTGACGCTGCTG | IRF3 S386D/S396D/S398D/S402D/T404D/S405D full length, phosphomimetic | protein-binding microarray | double-stranded DNA, one strand shown, in vitro | 2540 nM top, 60-bp whole probe, together with: salmon DNA 0.4 mg/ml | reference: random background probes, higher = stronger binding | fitted relative affinity | 3.57 z-score

Excerpt of the above (series 1):
Strand | E-score
AACCACCG | -0.136
